Results collected from several papers.
Values joined by “and” are separate records of one study, mostly repeats; a detail may differ. Numbers after ± are the reported error.
P2RY2: P2Y purinoceptor 2 (P2RY2, Homo sapiens, UniProt P41231)
UniProt P41231, sequence (whole entry, looked up): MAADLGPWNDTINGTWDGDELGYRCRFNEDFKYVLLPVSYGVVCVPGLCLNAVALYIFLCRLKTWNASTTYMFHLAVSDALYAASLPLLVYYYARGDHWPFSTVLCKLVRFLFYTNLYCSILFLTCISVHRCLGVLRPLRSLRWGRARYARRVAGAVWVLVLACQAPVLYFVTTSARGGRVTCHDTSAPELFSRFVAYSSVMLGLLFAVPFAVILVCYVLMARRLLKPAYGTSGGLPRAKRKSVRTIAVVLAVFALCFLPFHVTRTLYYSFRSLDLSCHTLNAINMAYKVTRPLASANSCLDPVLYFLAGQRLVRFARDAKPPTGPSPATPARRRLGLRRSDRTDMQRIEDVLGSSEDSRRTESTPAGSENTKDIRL
Melanocortin receptor 4: Melanocortin receptor 4 (Mus musculus, UniProt P56450)
UniProt P56450, sequence (whole entry, looked up): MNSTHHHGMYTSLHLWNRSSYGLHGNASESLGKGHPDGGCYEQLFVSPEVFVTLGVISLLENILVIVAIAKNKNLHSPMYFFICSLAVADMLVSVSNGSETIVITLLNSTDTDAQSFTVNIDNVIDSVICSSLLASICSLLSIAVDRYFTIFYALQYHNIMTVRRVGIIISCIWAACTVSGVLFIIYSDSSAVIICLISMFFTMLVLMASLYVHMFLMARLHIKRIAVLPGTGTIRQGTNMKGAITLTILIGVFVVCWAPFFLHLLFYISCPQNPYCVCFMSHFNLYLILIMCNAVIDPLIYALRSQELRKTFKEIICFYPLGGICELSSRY
ATP2A2: ATP2A2 (Sus scrofa, UniProt P11607)
UniProt P11607, sequence (whole entry, looked up): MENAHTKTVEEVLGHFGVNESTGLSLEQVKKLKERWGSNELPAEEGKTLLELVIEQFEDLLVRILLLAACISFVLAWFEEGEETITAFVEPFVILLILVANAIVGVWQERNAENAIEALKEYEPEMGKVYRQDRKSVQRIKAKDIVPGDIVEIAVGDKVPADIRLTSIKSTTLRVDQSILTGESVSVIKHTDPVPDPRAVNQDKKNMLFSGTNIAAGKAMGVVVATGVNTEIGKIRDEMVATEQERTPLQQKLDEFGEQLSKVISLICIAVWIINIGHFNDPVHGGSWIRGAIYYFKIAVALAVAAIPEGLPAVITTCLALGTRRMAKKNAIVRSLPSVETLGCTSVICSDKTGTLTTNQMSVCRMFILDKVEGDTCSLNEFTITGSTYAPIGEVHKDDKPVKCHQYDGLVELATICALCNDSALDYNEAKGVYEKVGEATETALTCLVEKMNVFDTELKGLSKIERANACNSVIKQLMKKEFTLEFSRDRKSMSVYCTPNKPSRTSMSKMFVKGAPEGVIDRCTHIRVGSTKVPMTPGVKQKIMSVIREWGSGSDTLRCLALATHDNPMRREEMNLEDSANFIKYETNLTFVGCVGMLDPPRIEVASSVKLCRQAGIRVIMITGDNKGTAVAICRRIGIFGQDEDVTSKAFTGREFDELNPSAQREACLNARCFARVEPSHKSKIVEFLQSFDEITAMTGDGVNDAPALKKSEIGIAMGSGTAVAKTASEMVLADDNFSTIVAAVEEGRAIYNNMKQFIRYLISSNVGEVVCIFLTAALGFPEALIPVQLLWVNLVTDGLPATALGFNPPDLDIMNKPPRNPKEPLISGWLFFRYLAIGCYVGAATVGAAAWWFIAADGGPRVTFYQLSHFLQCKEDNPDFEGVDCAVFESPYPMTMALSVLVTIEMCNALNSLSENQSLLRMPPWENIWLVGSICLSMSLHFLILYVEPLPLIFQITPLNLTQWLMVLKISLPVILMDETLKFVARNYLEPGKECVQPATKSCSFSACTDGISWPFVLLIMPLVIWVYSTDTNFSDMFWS
P2RY4: P2Y purinoceptor 4 (P2RY4, Homo sapiens, UniProt P51582)
UniProt P51582, sequence (whole entry, looked up): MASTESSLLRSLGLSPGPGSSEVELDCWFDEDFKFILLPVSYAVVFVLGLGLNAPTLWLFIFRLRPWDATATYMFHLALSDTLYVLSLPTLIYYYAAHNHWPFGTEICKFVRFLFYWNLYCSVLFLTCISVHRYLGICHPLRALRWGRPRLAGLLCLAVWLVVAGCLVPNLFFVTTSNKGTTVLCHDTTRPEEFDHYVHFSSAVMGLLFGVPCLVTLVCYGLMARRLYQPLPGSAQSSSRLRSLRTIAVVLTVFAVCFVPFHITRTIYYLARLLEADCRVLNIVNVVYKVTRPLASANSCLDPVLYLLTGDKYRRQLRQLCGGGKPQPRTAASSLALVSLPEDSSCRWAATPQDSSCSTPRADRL
CHRM1: Muscarinic acetylcholine receptor M1 (CHRM1, Homo sapiens, UniProt P11229)
UniProt P11229, sequence (whole entry, looked up): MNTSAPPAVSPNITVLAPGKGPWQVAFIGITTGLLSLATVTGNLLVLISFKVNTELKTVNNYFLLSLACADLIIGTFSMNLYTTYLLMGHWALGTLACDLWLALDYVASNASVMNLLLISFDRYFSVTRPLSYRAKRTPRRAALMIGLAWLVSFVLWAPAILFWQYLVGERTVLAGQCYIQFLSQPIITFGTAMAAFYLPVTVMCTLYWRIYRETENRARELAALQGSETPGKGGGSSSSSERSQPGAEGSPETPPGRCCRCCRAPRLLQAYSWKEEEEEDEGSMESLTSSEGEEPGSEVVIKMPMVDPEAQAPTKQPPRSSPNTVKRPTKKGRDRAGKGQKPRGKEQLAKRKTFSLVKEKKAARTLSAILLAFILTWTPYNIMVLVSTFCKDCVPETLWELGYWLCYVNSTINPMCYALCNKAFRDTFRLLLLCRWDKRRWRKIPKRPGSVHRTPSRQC
GPBAR1: G-protein coupled bile acid receptor 1 (GPBAR1, Homo sapiens, UniProt Q8TDU6)
UniProt Q8TDU6, sequence (whole entry, looked up): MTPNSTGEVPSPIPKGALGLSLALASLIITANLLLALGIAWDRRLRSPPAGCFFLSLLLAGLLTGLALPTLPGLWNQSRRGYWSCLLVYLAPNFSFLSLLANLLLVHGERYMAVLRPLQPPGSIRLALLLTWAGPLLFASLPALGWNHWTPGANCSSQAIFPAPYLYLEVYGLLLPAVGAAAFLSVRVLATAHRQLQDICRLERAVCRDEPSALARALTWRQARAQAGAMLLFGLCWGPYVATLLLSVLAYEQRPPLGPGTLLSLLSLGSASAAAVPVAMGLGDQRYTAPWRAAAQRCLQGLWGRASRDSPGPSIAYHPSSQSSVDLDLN
DNA topoisomerase IB: DNA topoisomerase IB (Leishmania donovani, UniProt A0A3Q8IHS4+Q8WQM6)
UniProt P37231, sequence (whole entry, looked up): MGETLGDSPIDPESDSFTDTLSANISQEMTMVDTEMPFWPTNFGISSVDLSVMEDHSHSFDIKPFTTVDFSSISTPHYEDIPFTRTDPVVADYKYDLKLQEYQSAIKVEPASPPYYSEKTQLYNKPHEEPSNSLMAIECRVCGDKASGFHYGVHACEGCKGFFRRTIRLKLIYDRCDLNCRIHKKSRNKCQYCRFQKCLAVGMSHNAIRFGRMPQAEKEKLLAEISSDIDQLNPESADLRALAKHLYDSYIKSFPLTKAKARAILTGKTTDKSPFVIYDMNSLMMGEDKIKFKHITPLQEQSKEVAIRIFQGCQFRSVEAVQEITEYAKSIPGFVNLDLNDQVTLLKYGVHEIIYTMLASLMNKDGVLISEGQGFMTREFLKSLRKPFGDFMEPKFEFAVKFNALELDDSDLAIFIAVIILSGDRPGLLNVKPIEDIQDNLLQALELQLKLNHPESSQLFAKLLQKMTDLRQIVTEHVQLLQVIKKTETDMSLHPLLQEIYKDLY
UniProt P11474, sequence (whole entry, looked up): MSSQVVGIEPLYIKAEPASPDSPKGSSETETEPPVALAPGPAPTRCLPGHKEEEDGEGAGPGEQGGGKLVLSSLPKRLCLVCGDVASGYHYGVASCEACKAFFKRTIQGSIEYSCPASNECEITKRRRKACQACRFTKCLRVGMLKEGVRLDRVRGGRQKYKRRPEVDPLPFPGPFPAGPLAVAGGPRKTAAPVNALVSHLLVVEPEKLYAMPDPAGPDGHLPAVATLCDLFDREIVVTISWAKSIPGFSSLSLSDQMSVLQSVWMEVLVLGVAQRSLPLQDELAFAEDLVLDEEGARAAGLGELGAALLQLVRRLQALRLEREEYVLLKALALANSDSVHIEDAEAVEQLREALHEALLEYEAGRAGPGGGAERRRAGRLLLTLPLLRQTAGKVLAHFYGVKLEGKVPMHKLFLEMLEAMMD

Compound = BP(=O)(OC[C@H]1O[C@@H](n2ccc(=O)[nH]c2=O)[C@H](O)[C@@H]1O)OP(=O)(O)OP(=O)(O)OC[C@H]1O[C@@H](n2ccc(=O)[nH]c2=O)[C@H](O)[C@@H]1O (stereo partly shown); target = P2RY2; assay = intracellular calcium rise, agonist; test system = 1321N1 expressing human P2Y2; setting = 37 °C; EC50 = > 100 µM
Compound = O=C(NN=Cc1ccccc1)c1ccccc1O; target = ESRRA (Homo sapiens, UniProt P11474); assay = reporter gene, agonist, luciferase reporter; test system = HEK293 transfected; EC50 = 0.619 µM
Compound = CCCC[C@H](NC(=O)[C@H](CO)NC(=O)[C@H](Cc1ccc(O)cc1)NC(=O)[C@H](CO)NC(C)=O)C(=O)N[C@@H](CCC(=O)O)C(=O)N[C@@H](Cc1c[nH]cn1)C(=O)N[C@H](Cc1ccccc1)C(=O)N[C@@H](CCCNC(=N)N)C(=O)N[C@@H](Cc1c[nH]c2ccccc12)C(=O)NCC(=O)N[C@@H](CCCCN)C(=O)N[C@@H](C)C(=O)N[C@H](C(N)=O)C(C)C; target = Melanocortin receptor 4; EC50 = 0.00083 ± 0.00018 µM
Compound = CCCN(Cc1ccccc1OC)C(=O)c1ccc(F)c(Br)c1; target = ATP2A2; assay = Ca2+-ATPase activity, activator; test system = porcine cardiac SR vesicles; setting = maximal Ca2+ activity; EC50 = 4 ± 2.1 µM
Compound = O=c1ccn([C@@H]2O[C@H](COP(=O)(O)OP(=O)(O)OP(=O)(O)OC3CCCCC3)[C@@H](O)[C@H]2O)c(=O)[nH]1; target = P2RY4; assay = PLC activation, agonist; test system = 1321N1, transfected; EC50 = > 10 µM
Compound = CCCCC/C(=C\C/C=C\CCCCCCCC(=O)O)[N+](=O)[O-]; target = PPARG (Homo sapiens, UniProt P37231); assay = reporter gene, agonist; test system = MCF7 PPRE-luciferase; setting = 24 h, without doxycycline; EC50 = 0.41 to 0.62 µM and 0.62 µM
Compound = Cn1cc(-c2ccc(CN3C(=O)C4(CCNC4)c4ccccc43)c(F)c2)cn1 (stereo not shown); target = CHRM1; assay = acetylcholine response, positive allosteric modulator; test system = cell-based; setting = inactive up to 30 µM; EC50 = > 30 µM
Compound = C=CCOc1ccc(F)cc1[C@H]1C[C@@H]1CN.Cl; target = HTR2B (Homo sapiens, UniProt P41595); EC50 = inactive
Compound = CSCC[C@H](NC(=O)[C@H](CO)NC(=O)[C@H](Cc1ccc(O)cc1)NC(=O)[C@H](C)NC(C)=O)C(=O)N[C@@H](CCC(=O)O)C(=O)N[C@@H](Cc1c[nH]cn1)C(=O)N[C@@H](Cc1ccccc1)C(=O)N[C@@H](CCCNC(=N)N)C(=O)N[C@@H](Cc1c[nH]c2ccccc12)C(=O)NCC(=O)N[C@@H](CCCCN)C(=O)N1CCC[C@H]1C(=O)N[C@H](C(N)=O)C(C)C; target = Melanocortin receptor 4; EC50 = 0.014 ± 0.0056 µM
Compound = C[C@H](CCC(=O)N[C@@H](Cc1ccccc1)C(=O)O)[C@H]1CC[C@H]2[C@@H]3[C@H](O)C[C@@H]4C[C@H](O)CC[C@]4(C)[C@H]3C[C@H](O)[C@]12C; target = GPBAR1; assay = G protein activation, agonist, BRET; EC50 = 265 µM
Compound = CSCC[C@H](NC(=O)[C@H](CO)NC(=O)[C@H](Cc1ccc(O)cc1)NC(=O)[C@H](CO)NC(C)=O)C(=O)N[C@@H](CCC(=O)O)C(=O)N[C@@H](Cc1c[nH]cn1)C(=O)N[C@@H](Cc1ccccc1)C(=O)N[C@@H](CCCNC(=N)N)C(=O)N[C@@H](Cc1c[nH]c2ccccc12)C(=O)NCC(=O)N[C@@H](C)C(=O)N1CCC[C@H]1C(=O)N[C@H](C(N)=O)C(C)C; target = Melanocortin receptor 4; EC50 = 0.04 ± 0.015 µM
Compound = CNC(=O)CC[C@@H](C)[C@H]1CC[C@H]2[C@@H]3CC[C@@H]4C[C@H](OC(=O)CCCCCC(=O)O)CC[C@]4(C)[C@H]3CC[C@]12C; target = human 20S proteasome; assay = chymotrypsin-like activity, activator; setting = without PA28; EC50 = > 15 µM
Compound = CCCCCCCCCCCCCC#CCCCCC(=O)O; target = DNA topoisomerase IB; assay = DNA relaxation, inhibitor; setting = 30 min, 37 °C, together with: supercoiled pHOT plasmid; EC50 = 49 µM and 36 to 49 µM
Compound = CSCC[C@H](NC(=O)[C@H](CO)NC(=O)[C@H](Cc1ccc(O)cc1)NC(=O)[C@H](CO)NC(C)=O)C(=O)N[C@@H](CCC(=O)O)C(=O)N[C@@H](Cc1c[nH]cn1)C(=O)N[C@@H](Cc1ccccc1)C(=O)N[C@@H](CCCNC(=N)N)C(=O)N[C@@H](Cc1c[nH]c2ccccc12)C(=O)NCC(=O)N[C@@H](CCCCN)C(=O)N1CCC[C@H]1C(=O)N[C@@H](C)C(N)=O; target = Melanocortin receptor 4; EC50 = 0.032 ± 0.014 µM
Compound = CCCCCC=CC=C1C(=O)C=C[C@@H]1CC=CCCCC(=O)O; target = Trpa1 (Mus musculus, UniProt Q8BLA8); assay = calcium signal, agonist, fluorescence; EC50 = 5.6 µM
Compound = CCCN(Cc1ccc(OC)cc1)C(=O)c1cc(C)c(C)s1; target = ATP2A2; assay = Ca2+-ATPase activity, activator; test system = porcine cardiac SR vesicles; setting = maximal Ca2+ activity; EC50 = 7.9 ± 2.3 µM
Compound = CCCCCCCCCCCCCCCCC(=O)O; target = DNA topoisomerase IB; assay = DNA relaxation, inhibitor; setting = 30 min, 37 °C; EC50 = > 1000 µM
Compound = CO/N=c1/ccn([C@@H]2O[C@H](COP(=O)(O)OP(=O)(O)OP(=O)(O)O[C@H]3O[C@H](CO)[C@@H](O)[C@H](O)[C@H]3O)[C@@H](O)[C@H]2O)c(=O)[nH]1; target = P2RY4; assay = PLC activation, agonist; test system = 1321N1, transfected; EC50 = > 10 µM
Compound = Cc1ncc(Cl)cc1NCc1ccc(C(=O)N[C@@H](CC2CCCC2)C(=O)NC2CC2)s1; target = PPM1D (Homo sapiens, UniProt O15297); assay = γH2AX level increase, inhibitor, ELISA; test system = MCF7; setting = 75 min after irradiation, pretreated 1 h, together with: 10 Gy ionizing radiation; EC50 = 0.2 ± 0.12 µM
Compound = BP(=O)(OC[C@H]1O[C@@H](n2cnc3c(N)ncnc32)[C@H](O)[C@@H]1O)OP(=O)(O)OP(=O)(O)OC[C@H]1O[C@@H](n2cnc3c(N)ncnc32)[C@H](O)[C@@H]1O (stereo partly shown); target = P2RY2; assay = intracellular calcium rise, agonist; test system = 1321N1 expressing human P2Y2; setting = 37 °C; EC50 = > 100 µM
Compound = CCCN(Cc1ccccc1OC)C(=O)c1cc2ccccc2s1; target = ATP2A2; assay = Ca2+-ATPase activity, activator; test system = porcine cardiac SR vesicles; setting = maximal Ca2+ activity; EC50 = 5.8 ± 1.5 µM
Compound = CCCC[C@H](NC(=O)[C@H](CO)NC(=O)[C@H](Cc1ccc(O)cc1)NC(=O)[C@H](CO)NC(C)=O)C(=O)N[C@@H](CCC(=O)O)C(=O)N[C@@H](Cc1c[nH]cn1)C(=O)N[C@@H](C)C(=O)N[C@@H](CCCNC(=N)N)C(=O)N[C@@H](Cc1c[nH]c2ccccc12)C(=O)NCC(=O)N[C@@H](CCCCN)C(=O)N1CCC[C@H]1C(=O)N[C@H](C(N)=O)C(C)C; target = Melanocortin receptor 4; EC50 = 0.38 ± 0.064 µM
Compound = CCCN(Cc1ccccc1OC)C(=O)c1cccc(Br)c1; target = ATP2A2; assay = Ca2+-ATPase activity, activator; test system = porcine cardiac SR vesicles; setting = maximal Ca2+ activity; EC50 = 1 µM
Compound = CSCC[C@H](NC(=O)[C@H](CO)NC(=O)[C@H](Cc1ccc(O)cc1)NC(=O)[C@H](CO)NC(C)=O)C(=O)N[C@@H](CCC(=O)O)C(=O)N[C@@H](Cc1c[nH]cn1)C(=O)N[C@@H](C)C(=O)N[C@@H](CCCNC(=N)N)C(=O)N[C@@H](Cc1c[nH]c2ccccc12)C(=O)NCC(=O)N[C@@H](CCCCN)C(=O)N1CCC[C@H]1C(=O)N[C@H](C(N)=O)C(C)C; target = Melanocortin receptor 4; EC50 = 4.62 ± 0.39 µM
Compound = O=C(Cn1c(=O)ccn([C@@H]2O[C@H](COP(=O)(O)OP(=O)(O)OP(=O)(O)O[C@H]3O[C@H](CO)[C@@H](O)[C@H](O)[C@H]3O)[C@@H](O)[C@H]2O)c1=O)c1ccccc1; target = P2RY4; assay = PLC activation, agonist; test system = 1321N1, transfected; EC50 = > 10 µM
Compound = Cn1cc(-c2ccc(Cn3ccccc3=O)c(F)c2)cn1; target = CHRM1; assay = calcium response, positive allosteric modulator; test system = HM1 cells; setting = together with: acetylcholine; EC50 = > 30 µM
Compound = CC1C=CCCOC(=O)c2c(O)cc(O)cc2CC(=NOCC(=O)N2CCCCC2)C=CC1 (stereo not shown); target = HSP90AA1 (Homo sapiens, UniProt P07900); assay = binding, fluorescence polarisation competition; setting = 20 nM HSP90, E/Z oxime mixture, together with: fluorescein-labelled 17-AAG analogue; EC50 = 0.021 µM
Compound = CCCC[C@H](NC(=O)[C@H](CO)NC(=O)[C@H](Cc1ccc(O)cc1)NC(=O)[C@H](CO)NC(C)=O)C(=O)N[C@@H](CCC(=O)O)C(=O)N[C@@H](Cc1c[nH]cn1)C(=O)N[C@H](Cc1ccccc1)C(=O)N[C@@H](CCCNC(=N)N)C(=O)N[C@@H](Cc1c[nH]c2ccccc12)C(=O)N[C@@H](C)C(=O)N[C@@H](CCCCN)C(=O)N1CCC[C@H]1C(=O)N[C@H](C(N)=O)C(C)C; target = Melanocortin receptor 4; EC50 = 0.0002 ± 3e-05 µM
Compound = C[C@H](CCC(=O)N[C@H](Cc1ccc(O)cc1)C(=O)O)[C@H]1CC[C@H]2[C@@H]3[C@H](O)C[C@@H]4C[C@H](O)CC[C@]4(C)[C@H]3C[C@H](O)[C@]12C; target = GPBAR1; assay = G protein activation, agonist, BRET; EC50 = 528 µM
Compound = O=S(=O)(O)CCN1CCN(CCO)CC1; target = Neuronal acetylcholine receptor; alpha4/beta2, (α4)2(β2)3 stoichiometry (Homo sapiens, UniProt P17787+P43681); assay = ion current, potentiator, two-electrode voltage clamp; test system = Xenopus oocytes; setting = high-sensitivity α4β2 stoichiometry, together with: 10 µM acetylcholine; EC50 = 7.1 µM
Compound = C[C@H](CCC(=O)N[C@@H](Cc1ccccc1)C(=O)O)[C@H]1CC[C@H]2[C@@H]3[C@H](O)C[C@@H]4C[C@H](O)CC[C@]4(C)[C@H]3CC[C@]12C; target = GPBAR1; assay = G protein activation, agonist, BRET; EC50 = 59.2 µM
Compound = CCCN(Cc1ccccc1OC)C(=O)c1ccc(Cl)s1; target = ATP2A2; assay = Ca2+-ATPase activity, activator; test system = porcine cardiac SR vesicles; setting = maximal Ca2+ activity; EC50 = 5.1 ± 0.7 µM
Compound = CCCC[C@H](NC(=O)[C@H](CO)NC(=O)[C@H](Cc1ccc(O)cc1)NC(=O)[C@H](CO)NC(C)=O)C(=O)N[C@@H](CCC(=O)O)C(=O)N[C@@H](Cc1c[nH]cn1)C(=O)N[C@H](Cc1ccccc1)C(=O)N[C@@H](CCCNC(=N)N)C(=O)N[C@@H](C)C(=O)NCC(=O)N[C@@H](CCCCN)C(=O)N1CCC[C@H]1C(=O)N[C@H](C(N)=O)C(C)C; target = Melanocortin receptor 4; EC50 = 0.34 ± 0.14 µM
Compound = CCCCCCCCCCCCCCCC(OC)C(=O)O (racemic); target = DNA topoisomerase IB; assay = DNA relaxation, inhibitor; setting = 30 min, 37 °C; EC50 = > 1000 µM

Repeated from above:
Compound = O=C(Cn1c(=O)ccn([C@@H]2O[C@H](COP(=O)(O)OP(=O)(O)OP(=O)(O)O[C@H]3O[C@H](CO)[C@@H](O)[C@H](O)[C@H]3O)[C@@H](O)[C@H]2O)c1=O)c1ccccc1; target = P2RY4; assay = PLC activation, agonist; test system = 1321N1, transfected; EC50 = > 10 µM
Compound = Cn1cc(-c2ccc(Cn3ccccc3=O)c(F)c2)cn1; target = CHRM1; assay = calcium response, positive allosteric modulator; test system = HM1 cells; setting = together with: acetylcholine; EC50 = > 30 µM
Compound = CC1C=CCCOC(=O)c2c(O)cc(O)cc2CC(=NOCC(=O)N2CCCCC2)C=CC1 (stereo not shown); target = HSP90AA1 (Homo sapiens, UniProt P07900); assay = binding, fluorescence polarisation competition; setting = 20 nM HSP90, E/Z oxime mixture, together with: fluorescein-labelled 17-AAG analogue; EC50 = 0.021 µM
Compound = CCCC[C@H](NC(=O)[C@H](CO)NC(=O)[C@H](Cc1ccc(O)cc1)NC(=O)[C@H](CO)NC(C)=O)C(=O)N[C@@H](CCC(=O)O)C(=O)N[C@@H](Cc1c[nH]cn1)C(=O)N[C@H](Cc1ccccc1)C(=O)N[C@@H](CCCNC(=N)N)C(=O)N[C@@H](Cc1c[nH]c2ccccc12)C(=O)N[C@@H](C)C(=O)N[C@@H](CCCCN)C(=O)N1CCC[C@H]1C(=O)N[C@H](C(N)=O)C(C)C; target = Melanocortin receptor 4; EC50 = 0.0002 ± 3e-05 µM
Compound = C[C@H](CCC(=O)N[C@H](Cc1ccc(O)cc1)C(=O)O)[C@H]1CC[C@H]2[C@@H]3[C@H](O)C[C@@H]4C[C@H](O)CC[C@]4(C)[C@H]3C[C@H](O)[C@]12C; target = GPBAR1; assay = G protein activation, agonist, BRET; EC50 = 528 µM
Compound = O=S(=O)(O)CCN1CCN(CCO)CC1; target = Neuronal acetylcholine receptor; alpha4/beta2, (α4)2(β2)3 stoichiometry (Homo sapiens, UniProt P17787+P43681); assay = ion current, potentiator, two-electrode voltage clamp; test system = Xenopus oocytes; setting = high-sensitivity α4β2 stoichiometry, together with: 10 µM acetylcholine; EC50 = 7.1 µM
